Assay results pooled from the literature.
Every numbered part comes from another study and shows a few of its results, in no order. Changes are numbered by the printed parent chain.
UniProt Q8WVN8, sequence (whole entry, looked up): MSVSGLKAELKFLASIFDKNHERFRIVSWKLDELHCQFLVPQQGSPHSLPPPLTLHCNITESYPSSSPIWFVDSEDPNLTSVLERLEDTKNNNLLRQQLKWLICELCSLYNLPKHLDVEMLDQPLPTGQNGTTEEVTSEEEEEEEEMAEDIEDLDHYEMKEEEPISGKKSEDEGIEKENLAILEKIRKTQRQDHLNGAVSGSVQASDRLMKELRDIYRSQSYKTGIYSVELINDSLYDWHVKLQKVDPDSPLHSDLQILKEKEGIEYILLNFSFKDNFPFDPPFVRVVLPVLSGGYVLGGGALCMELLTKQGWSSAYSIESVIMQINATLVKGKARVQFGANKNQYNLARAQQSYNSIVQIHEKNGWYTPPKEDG
UniProt P60604, sequence (whole entry, looked up): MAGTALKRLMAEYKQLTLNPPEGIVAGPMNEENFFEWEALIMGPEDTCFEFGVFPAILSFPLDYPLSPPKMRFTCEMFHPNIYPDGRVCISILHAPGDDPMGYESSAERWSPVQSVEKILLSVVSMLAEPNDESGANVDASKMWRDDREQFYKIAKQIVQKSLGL
UniProt Q15819, sequence (whole entry, looked up): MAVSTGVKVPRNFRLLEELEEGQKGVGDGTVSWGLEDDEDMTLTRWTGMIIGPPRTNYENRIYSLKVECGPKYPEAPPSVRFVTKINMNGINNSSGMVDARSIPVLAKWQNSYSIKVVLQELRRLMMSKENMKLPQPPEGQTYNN
UniProt P61088, sequence (whole entry, looked up): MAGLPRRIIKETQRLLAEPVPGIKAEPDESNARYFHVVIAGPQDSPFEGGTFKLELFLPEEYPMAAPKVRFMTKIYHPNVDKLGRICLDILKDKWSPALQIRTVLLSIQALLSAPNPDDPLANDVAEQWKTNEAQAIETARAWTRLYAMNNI
UniProt P51965, sequence (whole entry, looked up): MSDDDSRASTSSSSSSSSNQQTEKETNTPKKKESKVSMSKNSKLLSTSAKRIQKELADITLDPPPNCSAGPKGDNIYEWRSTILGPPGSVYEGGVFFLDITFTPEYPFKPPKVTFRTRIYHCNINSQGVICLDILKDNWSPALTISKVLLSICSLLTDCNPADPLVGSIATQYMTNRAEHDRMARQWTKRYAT
UniProt Q13404, sequence (whole entry, looked up): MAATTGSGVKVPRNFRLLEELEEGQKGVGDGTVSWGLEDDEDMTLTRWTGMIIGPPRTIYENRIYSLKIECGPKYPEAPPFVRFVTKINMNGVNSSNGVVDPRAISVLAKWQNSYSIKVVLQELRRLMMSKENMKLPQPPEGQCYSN

Set 1
Target: Histone acetyltransferase KAT6A, winged helix 2, GST fusion (KAT6A, Homo sapiens, UniProt Q92794, residues 85-181)
Technique: protein binding microarray
Form: double-stranded DNA, one strand shown
Medium: in vitro
Concentration: not given
Setting: 8-mer, flanks averaged, mean of 2 arrays, mostly near background
Baseline: not given
Direction: higher = stronger binding
Target sequence (chain): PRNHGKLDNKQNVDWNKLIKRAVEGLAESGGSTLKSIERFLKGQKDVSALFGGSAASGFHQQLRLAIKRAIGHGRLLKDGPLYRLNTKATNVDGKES
`CGATTTAG` gave an E-score of -0.0477.
`AGGGGGGG` gave an E-score of -0.0921.
With `TGATACCA` the E-score was 0.0763.
`ATACGGGG` has an E-score of -0.0704.
`AGTAAGAC` has an E-score of -0.0546.
With `CACTGCGC` the E-score was 0.0618.
`GAGAGAAA` has an E-score of 0.14.
`GCAGCTCA` has an E-score of -0.0465.

Set 2
Variant: S42Q
Target: ABI1, truncated, D143A, DHFR fusion (Arabidopsis thaliana)
Technique: DHFR PCA, deep sequencing
Medium: yeast
Setting: methotrexate growth selection, single substitutions
Baseline: wild-type fitted maximum
Direction: higher = stronger binding
Parent: PYL1, truncated, DHFR fusion (Arabidopsis thaliana); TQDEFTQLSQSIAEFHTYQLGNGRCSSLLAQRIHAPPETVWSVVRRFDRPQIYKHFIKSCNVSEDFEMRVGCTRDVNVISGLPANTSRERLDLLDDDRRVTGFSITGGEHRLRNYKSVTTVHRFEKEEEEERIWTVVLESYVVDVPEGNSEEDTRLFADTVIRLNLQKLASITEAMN; partner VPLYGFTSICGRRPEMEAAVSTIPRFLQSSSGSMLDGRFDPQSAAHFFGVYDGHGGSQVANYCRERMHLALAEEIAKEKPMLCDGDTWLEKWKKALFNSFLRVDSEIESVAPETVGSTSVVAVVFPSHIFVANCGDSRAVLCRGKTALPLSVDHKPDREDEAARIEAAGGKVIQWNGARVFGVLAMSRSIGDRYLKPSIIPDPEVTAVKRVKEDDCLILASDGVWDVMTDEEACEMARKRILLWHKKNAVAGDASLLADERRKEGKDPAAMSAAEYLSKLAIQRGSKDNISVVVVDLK
It gave 57.6% for “relative binding score” (with: (+)-ABA 1.4 µM).
For with: (+)-ABA 200 µM: “relative binding score” read 107%.
The “relative binding score” was 78.7% (with: (+)-ABA 4.8 µM).
The “relative binding score” was 80.6% (with: (+)-ABA 17 µM).
with: (+)-ABA 0.11 µM — “relative binding score”: 26.2%.
with: (+)-ABA 0.0091 µM — “relative binding score”: 28.5%.

Set 3
Molecule: B1 (RC3H1 RING domain)
Technique: yeast two-hybrid
Medium: yeast
Setting: mostly zero background
Baseline: not given
Direction: higher = stronger interaction
B1: RC3H1 RING domain (UniProt Q5TC82); chain QAPQWTDFLSCPICTQTFDETIRKPISLGCGHTVCKMCLNKLHRKACPFDQTTINTDIELL
For UBE2G2 UBC core domain (UniProt P60604): “lacZ reporter activity” read 0.
UBE2V1 UBC core domain (UniProt Q13404) — “lacZ reporter activity”: 0.
For UBE2V2 UBC core domain (UniProt Q15819): “lacZ reporter activity” read 0.
For UBE2Q2 UBC core domain (UniProt Q8WVN8): “lacZ reporter activity” read 0.
It gave 0 for “lacZ reporter activity” (UBE2E1 UBC core domain (UniProt P51965)).
The “lacZ reporter activity” was 0 (UBE2N UBC core domain (UniProt P61088)).

Further values, each from its own experiment
`SLVAIHLAC` — result for binding: “inactive” (HLA class I histocompatibility antigen, A alpha chain, allele A*80:01 (Homo sapiens, UniProt P04439); peptide-MHC binding; peptide; concentration not given).

Some of these lines once more (set 2):
It gave 57.6% for “relative binding score” (with: (+)-ABA 1.4 µM).
For with: (+)-ABA 200 µM: “relative binding score” read 107%.
